Results from different studies.
Lines come from different studies, so protocols differ. Numbers after ± are the reported error.

SMILES = CC(=O)NC(Cc1ccc(Br)c(Cl)c1)C(=O)N[C@@H](C)C(=O)N1CCC[C@H]1C(=O)N1CCC[C@H]1C(=O)N[C@@H](CCC(=O)O)C(=O)N[C@@H](Cc1c[nH]cn1)C(=O)N[C@@H](CO)C(=O)N[C@H](C(=O)N[C@@H](C)C(N)=O)[C@@H](C)OP(=O)(O)O (stereo partly shown); target = Vascular endothelial growth factor receptor 2 (KDR, Homo sapiens, UniProt P35968); conditions = 10 µM; endpoint = inhibition; value = 5.74 ± 0.18%
SMILES = NC(=NN=Cc1cccs1)[S][Ru+]([Cl])([P](c1ccccc1)(c1ccccc1)c1ccccc1)[P](c1ccccc1)(c1ccccc1)c1ccccc1.[Cl-]; target = Albumin (ALB, Bos taurus, UniProt P02769); assay = fluorescence quenching; endpoint = Stern-Volmer constant; value = 80400 M⁻¹
SMILES = CC1=C(C)[C@@H](Oc2c(F)cc3c(C)cc(=O)oc3c2F)OC1=O; target = RMS3 (Lathyrus oleraceus, UniProt A0A109QYD3); assay = enzyme activity, substrate, DiFMU release; conditions = pre-steady state; endpoint = kcat/K1/2; value = 117 M⁻¹ s⁻¹
SMILES = COC(=O)C1C(OC(c2ccc(Cl)cc2)c2ccc(Cl)cc2)CC2CCC1N2C (single isomer, unassigned); target = rat GABAA receptor agonist site; assay = binding, radioligand displacement; conditions = inactive if below 75% at 10000 nM, together with: [3H]muscimol; endpoint = Ki; value = inactive
SMILES = Nc1ncc2ncn([C@@H]3O[C@@H]4COP(=O)(O)O[C@H]5[C@@H](O)[C@H](n6cnc7cnc(N)nc76)O[C@@H]5COP(=O)(O)O[C@H]4[C@H]3O)c2n1; target = gdpP, residues 84-659 (Bacillus subtilis, UniProt P37484); assay = HPLC; conditions = concentration not given; how to read = relative to: c-di-AMP, higher = slower hydrolysis; endpoint = hydrolysis rate fold decrease; value = 2.4
SMILES = CCN(Cc1ccccc1)C(=O)CCc1nc(CN2CCN(C(=O)Cc3ccc(OC)c(OC)c3)CC2)no1; target = Potassium voltage-gated channel subfamily KQT member 2 (KCNQ2, Homo sapiens, UniProt O43526); assay = potassium current, whole-cell patch clamp; system = CHO, stable; conditions = 1 µM; endpoint = activation V1/2; value = -40 ± 11.7 mV
SMILES = O[C@@H]1[C@@H](O)[C@H](O)C[C@H]2N[C@@H]12; target = Exo-1,4-beta-xylosidase xlnD (xlnD, Emericella nidulans, UniProt Q5BAS1); assay = covalent inhibitor; system = Aspergillus nidulans; conditions = pH 4.5; endpoint = kinact/Ki; value = 2330 M⁻¹ s⁻¹
SMILES = CC[C@H](C)[C@H](NC(=O)[C@H](CC(=O)O)NC(C)=O)C(=O)N[C@H](C(=O)N[C@H](C(=O)N[C@@H](CCCNC(=N)N)C(=O)N[C@@H](Cc1ccc(O)cc1)C(=O)N[C@@H](CC(N)=O)C(=O)NCC(=O)N[C@@H](CCCCN)C(=O)N[C@H](C(=O)N[C@@H](Cc1c[nH]c2ccccc12)C(=O)N[C@@H](Cc1c[nH]c2ccccc12)C(=O)N[C@@H](CCCNC(=N)N)C(=O)O)C(C)C)[C@@H](C)O)[C@@H](C)O; target = Insulin (INS, Bos taurus, UniProt P01317); assay = isothermal titration calorimetry; conditions = pH 2.6, 25 °C; endpoint = Ka, site 4; value = 21600 M⁻¹
SMILES = O=C(NC1CCCC1=O)C1CCC1 (stereo not shown); target = HTH-type quorum-sensing regulator RhlR (rhlR, Pseudomonas aeruginosa, UniProt P54292); assay = reporter gene, agonist, rhlI-lacZ reporter; system = Escherichia coli; endpoint = maximum activation; value = 93%
SMILES = O=C(Nc1cccc(-c2nn[nH]n2)c1)c1cc(-c2nn[nH]n2)cc(C(F)(F)F)c1; target = CTX-M-27 beta-lactamase; assay = surface plasmon resonance; endpoint = Kd/Ki difference; value = > 3 fold

Some of these lines once more:
SMILES = CC[C@H](C)[C@H](NC(=O)[C@H](CC(=O)O)NC(C)=O)C(=O)N[C@H](C(=O)N[C@H](C(=O)N[C@@H](CCCNC(=N)N)C(=O)N[C@@H](Cc1ccc(O)cc1)C(=O)N[C@@H](CC(N)=O)C(=O)NCC(=O)N[C@@H](CCCCN)C(=O)N[C@H](C(=O)N[C@@H](Cc1c[nH]c2ccccc12)C(=O)N[C@@H](Cc1c[nH]c2ccccc12)C(=O)N[C@@H](CCCNC(=N)N)C(=O)O)C(C)C)[C@@H](C)O)[C@@H](C)O; target = Insulin (INS, Bos taurus, UniProt P01317); assay = isothermal titration calorimetry; conditions = pH 2.6, 25 °C; endpoint = Ka, site 4; value = 21600 M⁻¹
SMILES = O=C(NC1CCCC1=O)C1CCC1 (stereo not shown); target = HTH-type quorum-sensing regulator RhlR (rhlR, Pseudomonas aeruginosa, UniProt P54292); assay = reporter gene, agonist, rhlI-lacZ reporter; system = Escherichia coli; endpoint = maximum activation; value = 93%
